Measured values gathered from unrelated publications.
Numbered parts are unrelated; each lists some results of a single study.

Set 1
Target: Prothrombin, mature alpha-thrombin (F2, Homo sapiens, UniProt P00734)
Technique: aptamer microarray, sandwich
Form: DNA with 2'F-ANA
Matrix: in vitro
Concentration: 200 nM
Setting: whole 15-mer aptamer, many near background
Together with: Cy3 exosite-II aptamer, 400 nM
Direction: higher = stronger binding
Oligonucleotide: GGTTGGTGTGGTTGG
Modification	mean fluorescence intensity
2'F-ANA at 1 2 3 5 6 7 9 13 15	53.2 a.u.
2'F-ANA at 1 2 3 6 7 8 11	215 a.u.
2'F-ANA at 3 6 7 13 14 15	536 a.u.
2'F-ANA at 5 6 8 9 10 12 13	48.3 a.u.
2'F-ANA at 1 3 4 5 7 8 10 11 13 14	44.2 a.u.
2'F-ANA at 1 4 5 6 9 11 14	87.3 a.u.
2'F-ANA at 1 2 5 6 7 8 9 11 13 14	158 a.u.
2'F-ANA at 2 3 4 5 7 9 10 11 12 13 14 15	50.9 a.u.
2'F-ANA at 2 4 6 12 13	423 a.u.
2'F-ANA at 2 3 4 6 8 11 14	219 a.u.
2'F-ANA at 2 3 5 9 10 12 13 14	78.1 a.u.
2'F-ANA at 2 3 5 9 12 14 15	73.9 a.u.
2'F-ANA at 4 6 7 9 10 12 14	62.6 a.u.
2'F-ANA at 3 5 8 9 10 11 12 14 15	54.8 a.u.
2'F-ANA at 2 4 6 7 12 13 14 15	108 a.u.
2'F-ANA at 1 2 6 7 8 9 12 13 14 15	66.7 a.u.
2'F-ANA at 3 4 6 9 11 12 13 14 15	221 a.u.
2'F-ANA at 1 8 9 11 12 13 14 15	80.2 a.u.
2'F-ANA at 2 8 10 11 13	107 a.u.
2'F-ANA at 3 5 6 9 11 12 15	161 a.u.
2'F-ANA at 1 3 6 11 15	223 a.u.
2'F-ANA at 3 4 5 7 8 9 10 15	53.5 a.u.
2'F-ANA at 1 2 4 5 6 11 13	51.7 a.u.
2'F-ANA at 2 3 4 7 8 9 10 11 12 13	267 a.u.
2'F-ANA at 2 3 5 7 11	129 a.u.

Set 2
Target: Histone acetyltransferase KAT6A, both winged helices, GST fusion (KAT6A, Homo sapiens, UniProt Q92794, residues 1-181)
Technique: protein binding microarray
Form: double-stranded DNA, one strand shown
Matrix: in vitro
Concentration: not given
Setting: 8-mer, flanks averaged, mean of 2 arrays, mostly near background
Baseline: not given
Direction: higher = stronger binding
Target sequence (chain): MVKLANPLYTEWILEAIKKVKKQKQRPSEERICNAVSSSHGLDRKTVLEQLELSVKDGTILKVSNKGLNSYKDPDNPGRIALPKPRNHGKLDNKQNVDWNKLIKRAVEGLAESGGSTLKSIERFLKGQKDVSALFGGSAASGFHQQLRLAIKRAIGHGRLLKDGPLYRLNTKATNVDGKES
Oligonucleotide	E-score
AAACGCGG	0.211
GAACGGGA	0.172
TGAGTCAA	-0.118
CCTTACTC	-0.0633
ACTCCGGA	0.0403
AGATTACT	-0.132
AAGTGAGT	-0.114
CACAGGAA	-0.106
TAAGTCAA	-0.0949
ACAAGTTC	-0.0993
GTTATGGA	-0.0743
AACGCCTC	-0.0687
AAGTACCG	0.208
CTGGCAAA	-0.122
CTTGCACC	-0.0764
CCACGTGG	-0.125
AGATAGCA	-0.171
CAGTTGTC	-0.106
GTCTTGAA	0.0155
CGTCGACA	0.075
CCAACACA	-0.168
ACTTACGA	-0.0465
ACAGCCAA	-0.117
ACGACGTA	-0.0176
ATGAAGCA	-0.267

Set 3
Target: Ras GTPase-activating protein-binding protein 1, RRM domain (G3BP1, Homo sapiens, UniProt Q13283)
UniProt Q13283, sequence (whole entry, looked up): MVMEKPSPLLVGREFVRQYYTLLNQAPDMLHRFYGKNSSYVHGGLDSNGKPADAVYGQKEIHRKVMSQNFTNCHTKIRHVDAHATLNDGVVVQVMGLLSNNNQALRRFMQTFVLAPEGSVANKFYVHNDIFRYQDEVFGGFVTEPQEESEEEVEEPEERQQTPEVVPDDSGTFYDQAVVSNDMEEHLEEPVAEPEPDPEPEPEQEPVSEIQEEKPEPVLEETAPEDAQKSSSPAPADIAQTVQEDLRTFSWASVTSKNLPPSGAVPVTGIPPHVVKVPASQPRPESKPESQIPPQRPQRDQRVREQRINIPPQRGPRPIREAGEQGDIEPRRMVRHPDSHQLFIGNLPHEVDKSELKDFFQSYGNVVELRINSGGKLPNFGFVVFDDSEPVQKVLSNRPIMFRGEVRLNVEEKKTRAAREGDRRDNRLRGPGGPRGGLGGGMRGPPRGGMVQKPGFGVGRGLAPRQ
Technique: RNA Bind-n-Seq
Form: RNA
Matrix: in vitro
Concentration: 1 µM
Setting: whole 134-nt RNA, ends assumed
Together with: 150 mM KCl
Baseline: input library
Direction: higher = stronger binding
Oligonucleotide	log2 enrichment
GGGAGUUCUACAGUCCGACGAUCAAGUCCUGUGCUACACAUCGUAUGUACCGAAUCGGGGCCCGGGCCCGGGGCCCGGGGAAAGUAUUAUGUUACGCCGUUCGGAUCUGCACUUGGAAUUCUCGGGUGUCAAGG	-1.24
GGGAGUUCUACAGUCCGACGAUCGUCCUGUGCUACACAUCGUAUGUACCGAAUCAAACCCCCAAAUUUUUUUAAACCCAAAAAAGUAUUAUGUUACGCCGUUCGGAUCUGCACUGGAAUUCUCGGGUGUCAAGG	-0.798
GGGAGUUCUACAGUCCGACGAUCUGGCCCUGGUGGCAUGCGGGGAGGAAGAGGUGGCCUCAUGGAUCGUGGUGGUACCGGUGGAAUGUUCAGAGGUGGCCGUGGUGGAGACAGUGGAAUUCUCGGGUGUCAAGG	-0.0365
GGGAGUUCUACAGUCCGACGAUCAGUCCUGUGCUACACAUCGUAUGUACCGAAUCGGGGAAAAGGGGAAAAGGGGAAAAGGAAAGUAUUAUGUUACGCCGUUCGGAUCUGCACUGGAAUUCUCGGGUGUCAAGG	0.136
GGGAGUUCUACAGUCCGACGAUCCUCAAGUCCUGUGCUACACAUCGUAUGUACCGAAUCGGAAAAAGGUGGUUUGGAAAGUAUUAUGUUACGCCGUUCGGAUCUGCACUUCCAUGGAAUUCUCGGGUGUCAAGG	-0.127
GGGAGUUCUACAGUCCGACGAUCCCUCAAGUCCUGUGCUACACAUCGUAUGUACCGAAUCGGGGAAGGAAGGAAGGAAAGUAUUAUGUUACGCCGUUCGGAUCUGCACUUCCAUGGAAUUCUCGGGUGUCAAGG	-0.303
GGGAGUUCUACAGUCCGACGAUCUGGGAGGUGGAUUUUGUUUAUUUUUUUAGCUCAUUUCCAGGGGUAGGAAUUUUUUUUUAAUAUGUGUCAUGAAUAAAGUUGUUUUUGAAAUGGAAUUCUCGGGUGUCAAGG	1.48
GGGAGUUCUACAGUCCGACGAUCAGUCCUGUGCUACACAUCGUAUGUACCGAAUCGGGCCCCGGCCCCGGGGCCCCGGGGAAAGUAUUAUGUUACGCCGUUCGGAUCUGCACUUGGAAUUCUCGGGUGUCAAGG	-0.739
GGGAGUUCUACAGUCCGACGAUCUGGCCCUGGUGGCAUGCGGGGAGGAAGAGGUGGCCUCAUGGAUCGUGGUGGUCCCGGUGCAAUGUUCAGAGGUGGCCGUGGUGGAGACAGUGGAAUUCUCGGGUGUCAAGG	0.67
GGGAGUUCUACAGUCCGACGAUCUAACUUUAGAGGAGGAUCUGAUGGAUAUGGCAGUGGACGUGGAUUUGGGGAUGGCUAUAAUGGGUAUGGAGGAGGACCUGCAGGUGGCAAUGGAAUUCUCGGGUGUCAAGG	-0.453

Set 4
Target: RNA binding protein fox-1 homolog 2, RRM domain, GST-SBP tag (RBFOX2, Homo sapiens, UniProt O43251-10, residues 100-194)
Technique: RNA Bind-n-Seq
Form: RNA
Matrix: in vitro
Concentration: 365 nM
Setting: natural RNA segment, single round, ends assumed
Baseline: no-protein control
Direction: higher = stronger binding
Target sequence (chain): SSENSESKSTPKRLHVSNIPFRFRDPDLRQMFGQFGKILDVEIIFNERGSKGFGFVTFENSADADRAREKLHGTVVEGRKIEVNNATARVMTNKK
Oligonucleotide	RBNS enrichment (R)
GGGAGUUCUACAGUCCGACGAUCGCUGCAUAUGUUGUAUUUUUUAAGUUGAAAUUAAUGAAGUUAACAUUUUUAUUGUAAUUUUAGCCUUAGCGUGUGGGGGUUUAUCCCUUUUUGUUAGCUGUGUACAGAAUUGGAAUUCUCGGGUGCCAA	1.03
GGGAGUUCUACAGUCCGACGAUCAGGUCAGGAGAUCGAGACCAUCCUGGCUAACAUGGUGAAACCCCGUCUCUGCUAAAAAUACAAAAAAUUAGCCAGAUGUGGUGGUGCACACCUGUAGUCCCAACUAUUCGUGGAAUUCUCGGGUGCCAA	0.298
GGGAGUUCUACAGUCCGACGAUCGGGUCAUUGGAAACCAUAAUGCAGAGUGGGCCCCCUACUCCAUUUCCCAGCAAAAGGCUCCAGCUGGAGGGAUGGGUUGUGGGGCAACCUGGUUCCUGCUAACUGCCAGAUGGAAUUCUCGGGUGCCAA	0.5
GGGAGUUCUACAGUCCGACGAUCUCAGUGGGUAGCUUGGGUUCCGCAUUGUGGGGUCAGUUCAAUGUCCAUAGUUCCUGCCUGCCAUCCUUCUGUGAGGGUCCAUUGCUGCUUGAUGGCCAUCUCUGCCUUUUUGGAAUUCUCGGGUGCCAA	0.741
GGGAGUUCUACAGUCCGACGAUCGGUUGUGUGUGUAUUGUGUAUAUACCUCAAGUUCAAGUUAAUGGCAUUGAUUUAUGUUCCAGACAAAAAUAACACAAAUAAUAAUAUCCUUCGUUAUAACCACAAUGAGAUGGAAUUCUCGGGUGCCAA	0.296
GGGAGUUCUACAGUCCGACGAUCGUUGGGGAGACAGAGGGGUUCAGACUUGGGAAGAAUCUGUCAGUGUGCAUGGAGUGAGGUGUGUGUGUGUGGAUGGAUGUGCACGUGUGCAUGCUUUUUUUCUUUUUGCCUGGAAUUCUCGGGUGCCAA	8.86
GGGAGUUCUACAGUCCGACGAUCAGCUCUUCUAGCUGAAUCUGAAAUAUUACCCCUUGUCUAGAAAAAGGGGGGCAGUCAGAACAGCUGUUCCCCACUCCGUGGUUCUCAAAAUCAUAAACCAUGGCUACUCUUGGAAUUCUCGGGUGCCAA	0.305
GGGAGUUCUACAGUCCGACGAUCUAGACAAACCAGGGCUUUGUAUGCUUGAAGUUCACUGUUUUGUGCCCCCCUUUGAAGAACUUUCUAUGCAGAAAUAGAUGGUCAGGGUUUCGGAUUUGCAGUGAUGUGUCUGGAAUUCUCGGGUGCCAA	1.47
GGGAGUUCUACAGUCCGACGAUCUAAAAGUGAAAGCCCUCUGUCACGAAACAACAUGGGUGGUCCAAAGAUCAGGGGCAAGACAACUCAGCACACCUGGAACCCUUGGGGUCUUUAAGCAGCCGUGUCCAGGCUGGAAUUCUCGGGUGCCAA	0.629
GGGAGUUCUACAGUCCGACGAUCCAGGUGUUCUGCAGGGUCUCUUCACAUGAAGCUGCCAAGCGUGAGUCAGCCCAUAAGCAAAGUCAAAUAACCCACGUGAGGACUGCUUUGUGUGUCUAACUCUCAGUUAUUGGAAUUCUCGGGUGCCAA	0.403
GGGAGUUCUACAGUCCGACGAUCCAGUUUCUGGACCAUGUUAUCACCUGUGUGUGUCUCAUAUCUUGGAAAUUGACAGAUUUGGUGAAUAACUUUUCCAUACUAUUCCUGCUUUUCCCAUCCACUGAAACAGCUGGAAUUCUCGGGUGCCAA	0.273
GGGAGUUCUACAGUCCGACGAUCGAAGUUAACAUCAAGCCAUCAAACCUGGGUAUAGUGCAGAAAACGUGGCACACACUGACCACACAUUAGGCUGUGUCACCAUUGUGUGGUGUACCUGCUGGAAGAAUUCUUGGAAUUCUCGGGUGCCAA	0.448

Excerpt of the above (set 2):
Oligonucleotide	E-score
TGAGTCAA	-0.118
CCTTACTC	-0.0633
ACTCCGGA	0.0403
AGATTACT	-0.132
AAGTGAGT	-0.114
CACAGGAA	-0.106
TAAGTCAA	-0.0949
ACAAGTTC	-0.0993
GTTATGGA	-0.0743
AACGCCTC	-0.0687
